Measured values from different studies.
Compare with care: the assays were run in different laboratories. ± gives the spread as reported.
Oprk1: Kappa-type opioid receptor (Oprk1, Mus musculus, UniProt P33534)
Chain of UniProt P33534 (whole entry, looked up): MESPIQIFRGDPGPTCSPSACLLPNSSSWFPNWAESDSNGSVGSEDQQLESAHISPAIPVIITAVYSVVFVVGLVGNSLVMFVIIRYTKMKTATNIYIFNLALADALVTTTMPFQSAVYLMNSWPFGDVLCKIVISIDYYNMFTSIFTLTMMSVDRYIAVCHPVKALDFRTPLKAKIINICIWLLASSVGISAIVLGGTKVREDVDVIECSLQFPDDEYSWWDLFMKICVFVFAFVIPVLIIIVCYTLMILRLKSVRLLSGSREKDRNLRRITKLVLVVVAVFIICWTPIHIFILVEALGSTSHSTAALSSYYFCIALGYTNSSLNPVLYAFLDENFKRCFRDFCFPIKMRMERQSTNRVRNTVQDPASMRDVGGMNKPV
EPHX2: Bifunctional epoxide hydrolase 2 (EPHX2, Homo sapiens, UniProt P34913)
Chain of UniProt P34913 (whole entry, looked up): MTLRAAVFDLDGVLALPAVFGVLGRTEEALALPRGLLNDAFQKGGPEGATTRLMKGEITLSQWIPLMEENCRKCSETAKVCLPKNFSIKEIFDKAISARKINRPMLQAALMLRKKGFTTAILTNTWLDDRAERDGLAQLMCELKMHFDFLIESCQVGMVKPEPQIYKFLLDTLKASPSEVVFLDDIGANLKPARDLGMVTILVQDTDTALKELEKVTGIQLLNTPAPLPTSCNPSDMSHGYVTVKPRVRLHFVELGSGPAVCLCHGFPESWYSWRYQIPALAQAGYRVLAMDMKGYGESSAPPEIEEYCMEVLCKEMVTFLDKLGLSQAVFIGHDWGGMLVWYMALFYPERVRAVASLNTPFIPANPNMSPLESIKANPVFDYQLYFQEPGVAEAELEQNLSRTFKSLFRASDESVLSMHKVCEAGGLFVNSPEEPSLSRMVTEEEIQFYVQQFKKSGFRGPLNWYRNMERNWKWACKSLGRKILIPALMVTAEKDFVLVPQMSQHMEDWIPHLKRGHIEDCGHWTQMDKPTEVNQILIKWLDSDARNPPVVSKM
Ephx2: Bifunctional epoxide hydrolase 2 (Ephx2, Mus musculus, UniProt P34914)
Chain of UniProt P34914 (whole entry, looked up): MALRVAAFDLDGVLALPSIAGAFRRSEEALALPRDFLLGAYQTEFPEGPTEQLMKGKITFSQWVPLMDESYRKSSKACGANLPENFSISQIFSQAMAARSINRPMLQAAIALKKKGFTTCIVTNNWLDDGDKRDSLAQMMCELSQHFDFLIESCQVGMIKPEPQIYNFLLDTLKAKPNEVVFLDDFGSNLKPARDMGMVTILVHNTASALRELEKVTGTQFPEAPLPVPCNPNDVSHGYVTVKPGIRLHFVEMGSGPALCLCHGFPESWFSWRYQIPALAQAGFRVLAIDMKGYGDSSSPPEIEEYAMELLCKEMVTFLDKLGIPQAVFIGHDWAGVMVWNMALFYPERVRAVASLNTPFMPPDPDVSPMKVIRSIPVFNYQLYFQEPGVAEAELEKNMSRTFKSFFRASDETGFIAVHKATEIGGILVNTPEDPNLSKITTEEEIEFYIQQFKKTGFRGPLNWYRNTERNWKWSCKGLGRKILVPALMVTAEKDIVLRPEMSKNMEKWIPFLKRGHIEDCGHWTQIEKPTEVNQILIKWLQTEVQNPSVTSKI
Chain of UniProt P35372 (whole entry, looked up): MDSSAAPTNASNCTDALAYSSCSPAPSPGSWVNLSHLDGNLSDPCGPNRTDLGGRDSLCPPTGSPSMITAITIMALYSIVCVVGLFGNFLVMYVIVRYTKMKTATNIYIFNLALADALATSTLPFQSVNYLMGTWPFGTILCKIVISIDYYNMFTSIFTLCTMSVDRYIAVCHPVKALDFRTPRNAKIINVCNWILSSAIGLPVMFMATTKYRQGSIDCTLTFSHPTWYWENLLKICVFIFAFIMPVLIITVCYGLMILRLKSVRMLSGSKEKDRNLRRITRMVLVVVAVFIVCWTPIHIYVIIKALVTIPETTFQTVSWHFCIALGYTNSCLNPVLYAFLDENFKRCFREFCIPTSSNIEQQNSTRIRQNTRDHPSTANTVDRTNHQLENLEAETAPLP
Chain of UniProt O00519 (whole entry, looked up): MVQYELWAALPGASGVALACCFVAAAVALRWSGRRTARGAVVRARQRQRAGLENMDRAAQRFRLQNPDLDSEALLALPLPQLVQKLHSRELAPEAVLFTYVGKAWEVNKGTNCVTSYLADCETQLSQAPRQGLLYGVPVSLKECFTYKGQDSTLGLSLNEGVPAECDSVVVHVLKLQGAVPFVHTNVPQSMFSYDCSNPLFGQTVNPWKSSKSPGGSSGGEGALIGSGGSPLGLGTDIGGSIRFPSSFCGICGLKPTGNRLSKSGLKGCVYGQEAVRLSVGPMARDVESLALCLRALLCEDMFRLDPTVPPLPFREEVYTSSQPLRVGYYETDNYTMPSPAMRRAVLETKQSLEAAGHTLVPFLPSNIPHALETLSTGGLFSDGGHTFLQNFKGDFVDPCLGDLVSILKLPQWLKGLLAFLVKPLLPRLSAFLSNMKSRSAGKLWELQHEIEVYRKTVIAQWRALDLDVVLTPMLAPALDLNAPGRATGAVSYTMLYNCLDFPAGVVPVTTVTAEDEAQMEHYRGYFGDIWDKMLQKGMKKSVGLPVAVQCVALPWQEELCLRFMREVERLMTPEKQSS
Chain of UniProt P32300 (whole entry, looked up): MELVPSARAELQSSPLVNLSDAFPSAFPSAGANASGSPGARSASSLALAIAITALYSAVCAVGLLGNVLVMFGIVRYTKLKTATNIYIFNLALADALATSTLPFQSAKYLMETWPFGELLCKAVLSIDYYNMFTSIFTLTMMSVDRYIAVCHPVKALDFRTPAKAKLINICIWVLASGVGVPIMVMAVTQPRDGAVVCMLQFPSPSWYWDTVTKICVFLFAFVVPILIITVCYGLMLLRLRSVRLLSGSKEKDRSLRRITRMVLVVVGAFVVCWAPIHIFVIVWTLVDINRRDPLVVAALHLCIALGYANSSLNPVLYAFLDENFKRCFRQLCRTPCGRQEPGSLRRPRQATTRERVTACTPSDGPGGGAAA
Chain of UniProt O42275 (whole entry, looked up): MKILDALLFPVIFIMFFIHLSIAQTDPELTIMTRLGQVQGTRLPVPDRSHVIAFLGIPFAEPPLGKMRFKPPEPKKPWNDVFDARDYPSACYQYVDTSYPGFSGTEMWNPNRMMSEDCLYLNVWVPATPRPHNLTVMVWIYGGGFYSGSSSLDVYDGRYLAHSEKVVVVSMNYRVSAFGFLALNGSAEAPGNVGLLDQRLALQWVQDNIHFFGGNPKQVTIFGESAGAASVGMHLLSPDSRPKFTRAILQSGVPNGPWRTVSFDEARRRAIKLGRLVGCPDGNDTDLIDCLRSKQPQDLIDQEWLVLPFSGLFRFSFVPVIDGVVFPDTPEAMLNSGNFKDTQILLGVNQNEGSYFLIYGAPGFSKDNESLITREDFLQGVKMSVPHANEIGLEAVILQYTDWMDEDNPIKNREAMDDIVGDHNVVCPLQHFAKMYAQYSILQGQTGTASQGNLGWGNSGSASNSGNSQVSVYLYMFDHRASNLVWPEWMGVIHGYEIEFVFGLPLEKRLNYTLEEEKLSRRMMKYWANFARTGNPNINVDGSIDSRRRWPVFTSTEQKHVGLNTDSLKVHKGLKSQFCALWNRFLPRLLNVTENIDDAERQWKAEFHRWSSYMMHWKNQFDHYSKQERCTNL
Chain of UniProt O55242 (whole entry, looked up): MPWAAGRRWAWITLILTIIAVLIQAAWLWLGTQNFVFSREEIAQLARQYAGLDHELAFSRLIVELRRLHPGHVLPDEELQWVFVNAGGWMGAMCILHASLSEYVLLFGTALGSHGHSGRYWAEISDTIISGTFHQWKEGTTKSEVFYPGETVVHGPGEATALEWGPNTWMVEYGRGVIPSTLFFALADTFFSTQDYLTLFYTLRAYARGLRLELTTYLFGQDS

C(#Cc1c[nH]c2nccc(-c3ccncc3)c12)c1cccnc1 — AUC(0-inf) (mouse C57BL/6, male; oral, 20 mg/kg): 1220 ± 617 ng·h/mL
O=C(Nc1ccc(-c2cnc3ccccc3c2)cc1)C1CCN(Cc2ccccc2)CC1 — IC50 (Fatty-acid amide hydrolase 1 (FAAH, Homo sapiens, UniProt O00519)): 104 nM
O=C(N[C@@H]1CC[C@@]2(O)[C@H]3Cc4ccc(O)c5c4[C@@]2(CCN3CC2CC2)[C@H]1O5)c1ccc(I)cc1 — EC50 (Oprk1; agonist): > 10000 nM
O=C(Nc1ccc(-c2cnc3ccccc3c2)cc1)C1CCN(Cc2ccc([N+](=O)[O-])cc2)CC1 — IC50 (Acetylcholinesterase (ache, Electrophorus electricus, UniProt O42275)): 2160 nM
Cc1ccc(C(=O)N[C@@H]2CC[C@@]3(O)[C@H]4Cc5ccc(O)c6c5[C@@]3(CCN4CC3CC3)[C@H]2O6)cc1 — EC50 (Delta-type opioid receptor (Oprd1, Mus musculus, UniProt P32300); agonist): > 10000 nM
Cc1ccccc1S(=O)(=O)Nc1c(N2CCC(NC(=O)Nc3ccc(F)c(C(F)(F)F)c3)CC2)c(=O)c1=O — IC50 (EPHX2): 15.6 ± 2.1 nM
O=C(Nc1ccc(-c2cnc3ccccc3c2)cc1)C1CCN(Cc2cccc([N+](=O)[O-])c2)CC1 — IC50 (EPHX2): 31.6 nM
Cc1cc(OCc2nnc(SC3CCCC3)n2-c2cccnc2)ccc1-c1ccc(S(C)(=O)=O)cc1 — GI50 (TK-10): 1860 nM
Cc1ccc(S(=O)(=O)Nc2c(N3CCC(NC(=O)Nc4ccc(OC(F)(F)F)c(F)c4)CC3)c(=O)c2=O)cc1 — IC50 (Ephx2): 86.8 ± 6.1 nM
CN1CC[C@]23c4c5ccc(O)c4O[C@H]2[C@@H](OS(=O)(=O)O)C=C[C@H]3[C@H]1C5 — IC50 (Mu-type opioid receptor (OPRM1, Homo sapiens, UniProt P35372)): 109 nM
O=C(Nc1ccc(F)cc1)NC1CCN(c2c(NS(=O)(=O)Cc3ccccc3)c(=O)c2=O)CC1 — IC50 (Ephx2): > 50000 nM
CC(C)=CCN1CC[C@]2(C)c3cc(O)ccc3C[C@H]1[C@H]2C — IC50 (Sigma non-opioid intracellular receptor 1 (Sigmar1, Mus musculus, UniProt O55242)): 2.24 ± 0.08 nM
Cc1ccccc1S(=O)(=O)Nc1c(N2CCC(NC(=O)Nc3cc(F)cc(F)c3)CC2)c(=O)c1=O — IC50 (EPHX2): 161 ± 16.7 nM
O=C(N[C@@H]1CC[C@@]2(O)[C@H]3Cc4ccc(O)c5c4[C@@]2(CCN3CC2CC2)[C@H]1O5)c1ccc(Br)cc1 — EC50 (Oprk1; agonist): > 10000 nM

Repeated from above:
C(#Cc1c[nH]c2nccc(-c3ccncc3)c12)c1cccnc1 — AUC(0-inf) (mouse C57BL/6, male; oral, 20 mg/kg): 1220 ± 617 ng·h/mL
O=C(N[C@@H]1CC[C@@]2(O)[C@H]3Cc4ccc(O)c5c4[C@@]2(CCN3CC2CC2)[C@H]1O5)c1ccc(I)cc1 — EC50 (Oprk1; agonist): > 10000 nM
